Results from different studies.
Each numbered part is a random draw from the data of one study; scales do not carry over between parts.

Sample 1
Target: RING finger protein unkempt homolog, zinc fingers 1-6, GST-SBP tag (UNK, Homo sapiens, UniProt Q9C0B0, residues 30-357)
Chain of UniProt Q9C0B0 (30-357, looked up): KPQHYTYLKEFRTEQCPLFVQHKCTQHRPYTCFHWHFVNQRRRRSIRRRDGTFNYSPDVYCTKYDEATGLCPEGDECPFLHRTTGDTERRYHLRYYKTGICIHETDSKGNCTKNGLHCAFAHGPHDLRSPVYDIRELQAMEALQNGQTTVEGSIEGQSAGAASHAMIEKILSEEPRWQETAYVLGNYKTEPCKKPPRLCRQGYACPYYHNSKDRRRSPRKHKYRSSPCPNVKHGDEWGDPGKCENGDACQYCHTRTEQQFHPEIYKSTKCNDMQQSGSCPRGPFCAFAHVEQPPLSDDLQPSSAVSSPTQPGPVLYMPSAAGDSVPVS
Technique: RNA Bind-n-Seq
Molecule type: RNA
Medium: in vitro
Tested at: not given
Setting: RNA with constant flanks, human and mouse sites, ends assumed
Baseline: input RNA pool
Direction: higher = stronger binding
Shared flanks, not repeated: GGGAGUUCUACAGUCCGACGAUC … CAACAGAGGAUUGAGCAUCA
Strand	bound/input enrichment [ratio]
AAAUUUGCAUAAUGUCAUAUACAUGUCCUUUGUACUGUUAUUUGUGUACACUUUGCUUUUGAAUUGUUUGAUUUGUUACAUUAAAUUCUAUAUCUUGACAUUUUCUUUCUUUAUGAGCAU	0.685
AAAUAUCCUCAGCUAUUUCAGGUGACACUGGAUGUAGAACUACAGCCCCAUGACAAAGUAAUAGACUUAACUCCACCAUGGGAACAUUACUGCACAAAAGAUGUCAAUCCCAGCAUCCUC	0.217
UGUUAUUCUGAUGGCACCGCCGUUCACGAAAGCCAUGCAAAGAAUGCUUCUUUUUAUGCCAACUCUUCAACUCUGUAUUACCAAAUAGAUAGCCACAUUCCAGGAACUCCAAAUCAGAUC	1.01
CCCGGCCCCUUCGGGUCCCUGCAGGGCGCUUUUCAGCCUAAGGUGUCUGACCCGUACCGGGCGGUGGUCAAGGUGAGCACGUGUUGGGAAGGCCCGUGGCAAGGGAGGACUCUGGUGCCC	0.118
UGUUUCAUAUCCAUAUCCCACUGUAUUCCUGCUAAUCUGCUAAUGCAGUAAAUUGGAGGAAAACUGUUACCAGGAUAACCUGUAAUGGGCAAGGAGCCACAAAGAAGAAAACAUUUCUUU	0.155
UAGAUACAUAUAUAUUUGCUUGAAGAAUCACCAAGCAAAUUGGUGAGAGGGUCUUUUCCAAUAGAAUUUACACCUCCAUUUGUUGUGUUGUCUUGCACUUCCCAAUGUUGAUGUCUCUAU	1.06
GAACCGAAAGGCCAAAUCCCCUCCUCCCUUCUCCUGCUUCUGCCAACCGGAAGCACAGAAAACUAGAACUUCAUUGAUUUUGUUUUUUAAAAGAUACACUGAUUUAACAUCUGAUAGGAA	1.04
GUUGGUCAAUUCUACUUCUUGAUCCGGAAGCGAAUUCAUCUCCGUGCUGAAGAUGCCUUGUUUUUCUUUGUCAACAAUGUCAUUCCACCCACCAGUGCCACGAUGGGUCAGCUGUACCAG	0.179

Sample 2
Target: Protein max, full length (MAX, Homo sapiens, UniProt P61244-2, residues 1-151)
Technique: protein-binding microarray
Molecule type: double-stranded DNA, one strand shown
Medium: in vitro
Tested at: not given
Setting: k-mer, scored over probes, only values ≥0.25
Direction: higher = stronger binding
Strand	E-score
CAGCACGA	0.354
AGTCACGA	0.355
CACATGCA	0.469
CGCATGTC	0.424
CCACGTGA	0.496
TAGTCACA	0.324
ATGTGTGC	0.355
CATGCCGC	0.406

Single results of other studies
Substance	tested on	test	test system	conditions	scale	measurement	result
LQVDDDSGDPLNLVKA	human cyclin F-Cln2 fusion	yeast growth, competitive growth deep sequencing	peptide, Saccharomyces cerevisiae	peptide tiling library	direction not given	enrichment score	-0.313
PhoQ, residues 284 288 289 292 302 303 NLAAMI	PhoP, residues 12 14 15 18 19 SYFRT (Escherichia coli, UniProt P23836)	Sort-seq, measured: YFP reporter	E. coli	PhoQ-PhoP variant library, with: 10 µM Mg2+	baseline: high Mg2+ state, higher = stronger signaling	fold induction	11.7
HRRRLLFACSPPPASQ	–	peptide binding	peptide, yeast competitive growth	with: B1-Cln2 chimera	direction not given	enrichment score	0.00174

Some of these lines once more (sample 1):
Strand	bound/input enrichment [ratio]
GAACCGAAAGGCCAAAUCCCCUCCUCCCUUCUCCUGCUUCUGCCAACCGGAAGCACAGAAAACUAGAACUUCAUUGAUUUUGUUUUUUAAAAGAUACACUGAUUUAACAUCUGAUAGGAA	1.04
